Results collected from several papers.
Parts stem from different laboratories: compare values within a part only. Changes are numbered by the printed parent chain.

Sample 1
Target: PABPC1L2, full length, GST fusion (mouse, UniProt A0ABA7IW68)
Technique: RNAcompete
Molecule type: RNA
Matrix: in vitro
Concentration: 20 nM
Notes: 7-mer, probes averaged, single round
Reference: mean of 7-mers
Reading: higher = stronger binding
Endpoint: 7-mer Z-score
Construct (chain): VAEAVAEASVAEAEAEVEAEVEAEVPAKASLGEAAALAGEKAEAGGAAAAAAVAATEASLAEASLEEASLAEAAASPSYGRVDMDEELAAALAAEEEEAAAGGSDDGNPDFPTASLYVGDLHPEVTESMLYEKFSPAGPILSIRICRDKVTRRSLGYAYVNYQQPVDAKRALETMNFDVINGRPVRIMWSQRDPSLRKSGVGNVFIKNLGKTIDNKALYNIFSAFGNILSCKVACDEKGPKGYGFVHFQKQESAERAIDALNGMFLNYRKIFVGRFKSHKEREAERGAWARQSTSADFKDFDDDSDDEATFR
CAAAGUU: 0.187
ACCACUA: -0.146
UGACGUA: -0.206
UGCGCCA: -0.122
GCUCUAG: -0.155
CAGUUCC: -0.253
UGCUGCG: -0.132
CUCUAAC: -0.195
GCCUCCU: -0.318
AUAGCAG: 0.046
AGAUUCU: -0.367
ACCUUAA: 0.0551
UAAAUGG: 0.717
GCUGGCG: -0.222
GAAGGUU: -0.135
CGCAGUC: -0.238
UCACUCU: -0.438
GAGCAUC: -0.15
CCGAGGC: -0.153
CUGGAGC: -0.0192
AGGCCCG: -0.0573
CCAGCGG: -0.17
ACGUCCG: -0.291

Sample 2
Target: Histone acetyltransferase KAT6A, winged helix 2, GST fusion (KAT6A, Homo sapiens, UniProt Q92794, residues 85-181)
Technique: protein binding microarray
Molecule type: double-stranded DNA, one strand shown
Matrix: in vitro
Concentration: not given
Notes: 8-mer, flanks averaged, mean of 2 arrays, mostly near background
Reference: not given
Reading: higher = stronger binding
Endpoint: E-score
Construct (chain): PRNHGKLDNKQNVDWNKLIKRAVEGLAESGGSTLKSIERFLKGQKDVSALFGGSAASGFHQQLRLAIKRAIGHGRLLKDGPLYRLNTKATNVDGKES
ACACAGCT: -0.196
AATACGAC: 0.0195
AGTAAATG: -0.0758
AGAACGCT: -0.0202
CGGTACGC: -0.0212
AGGACTGA: -0.17
ACCGAGCC: 0.0242
CAACCCTC: 0.0324
GGATCGCC: 0.00637
ACGAACTG: -0.0182
CACGCCTG: -0.0017
ACATTCTC: -0.11
ACCTAATC: -0.02
AAAGCTTG: -0.0844
GCATAAGC: 0.0896
AAATATAA: 0.166
CGCGTAAG: -0.109
ACATCCAT: -0.0454
GCCATTTA: -0.129
ACCGATCA: 0.0345

Sample 3
Target: TAR DNA-binding protein 43, full length, His tag (TARDBP, Homo sapiens, UniProt Q13148, residues 1-414)
Technique: RNA Bind-n-Seq
Molecule type: RNA
Matrix: in vitro
Concentration: 20 nM
Notes: 6-mer, flanks averaged, single round
Added: 150 mM KCl
Reference: input library
Reading: higher = stronger binding
Endpoint: 6-mer enrichment (R)
UAGGCA: 0.826
CUCGGA: 0.806
CAAGUA: 0.658
GGCCUA: 0.976
GUUUGC: 0.854
CACCAA: 0.718
AAGCGC: 0.782
AAGCUG: 0.783
UCGCUU: 0.579
GACCCA: 0.722
GAUAAC: 0.679
CGUGAA: 0.831
GUAGGC: 1.38
GGACUG: 1.64
AGCCAU: 0.646
UUGUCU: 0.606
AUGCCU: 0.656
ACGCAC: 0.691
ACUUCG: 0.583

Sample 4
Target: CCNA1, cyclin fold, Cln2 fusion (human)
Technique: yeast growth competition, sequencing
Matrix: yeast
Notes: weak parent motif
Reference: not given
Reading: higher = stronger binding
Endpoint: normalised enrichment score
Starting sequence: ORC1 docking peptide (human); PRARKRLELGNLG; partner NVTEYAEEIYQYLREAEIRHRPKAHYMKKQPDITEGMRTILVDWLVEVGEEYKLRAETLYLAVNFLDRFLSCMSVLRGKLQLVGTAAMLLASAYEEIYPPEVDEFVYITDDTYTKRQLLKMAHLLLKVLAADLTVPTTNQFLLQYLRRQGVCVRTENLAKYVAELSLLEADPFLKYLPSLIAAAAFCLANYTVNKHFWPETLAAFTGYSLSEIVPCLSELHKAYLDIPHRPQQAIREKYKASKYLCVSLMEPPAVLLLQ
N11V: 0.644
K5P: 0.186
R2L: 0.107
G13S: 0.428
L12Y: 0.416
L7P: -0.0643
K5S: 0.149
L9Q: 0.578
E8M: 0.217
R2G: 0.319
L12E: 0.551
L7N: -0.0812
P1I: 0.608
P1Q: 0.635
R2D: 0.355
E8I: 0.404
N11D: 0.687
N11S: 0.405
R6D: 0.402
G10E: 0.381
L12C: 0.334
E8C: -0.0233
G10K: 0.315
L7D: 0.351
L9F: 1.28

Sample 5
Target: RNA binding protein fox-1 homolog 2, RRM domain, GST-SBP tag (RBFOX2, Homo sapiens, UniProt O43251-10, residues 100-194)
Technique: RNA Bind-n-Seq
Molecule type: RNA
Matrix: in vitro
Concentration: 365 nM
Notes: natural RNA segment, single round, ends assumed
Reference: no-protein control
Reading: higher = stronger binding
Endpoint: RBNS enrichment (R)
All sequences stand within: GGGAGUUCUACAGUCCGACGAUC … UGGAAUUCUCGGGUGCCAA
Residues (chain): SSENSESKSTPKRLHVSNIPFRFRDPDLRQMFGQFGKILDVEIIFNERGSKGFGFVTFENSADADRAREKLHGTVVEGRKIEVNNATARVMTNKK
UUUGGGCACAUUUUACUUAGCUGGAGAACUAGGUUUAAAACAGCCUGGGUAGGAAAAUUAGAAGCAAGCUGGAUGCAGUGGCUCAUGCCUGUAAUCCCAACACUUUUGGG: 0.511
ACAUGAGAAAAUGACAGAGGAACUAAUAUAAGAGCAGAUCUUGACCCUUGCUGGGUCACUAUAAUUCUUUAGAAUUACUGAGUGAACUUUAAAAAAAUUUUCUGCAUAGG: 0.619
AAUUAUGAUAGAAAUCGAUUUAACACAAUCAGUUAUGGGCUUCCAUUUUCAAAUAUCUUUUCAACUGUAAUGACUAUGACAGGAACUGAUUCAACUCUCAAUUUUCUUUA: 0.517
ACAUUGUCAUCAUCUUUUUUUUUGAGACAGUUUCGCUCUGUUGCCCAGGCUGGAGUGCAGUGGUGUGAUCUUGGCUUUCUGCAACGUCUGCCUUCCAGGUUGAAGAGGUU: 0.436
GUAAGUUCAUGUAUAUAAUAUGUUUACAUGUUUCACUUUGAACUGAAAGCUACUCAAAGCCAGCCGUAAGUCUAUGGUAGAAUGUGAUGGAACAUGUUGGUGGAAGCUUG: 2.3
AGGGAAGAGGGUCGAGAGGGUUCCACUGUCUUGAGAGCUUCCUUUUGCUUUCUUCUCUUGCCUCUGAGAACAUCAGCCUGGAGGCCUGUCAGGCUACGGGCUGCCUGAGU: 0.574
CAUCUUCAUUCAUUCACUGAGUAUUUAUUGAACGCCUCCUAGGUGUCGGACAUGUACUGGGUGCUGGGAAUGCCACUGGAUCAUGAAGUUCACCUCUGGAGGAGACAGGA: 0.289
AGCAUUCUCUAUUUCUAAAGCCCACUUAUAACCCAGCAUACAAAUAGAUCUUAACAGUUUAUUAUUAACUUUUCAGGUCCUCAUUUAUUGAAAUUUAAAAAUAAAUGAAG: 0.593
CUCCCCAGCUGACACCCCAAGCACAGCCCCGGCACACCGCACUUUACCGGGAGGCAGGCUGUGCACAGAACCCUCUGCUGUGGAGGCCAGAGACCACCACCAGGCCCGCU: 0.341
AAGAAGUAUGAGAGUUGGGCUAUGGAGGGGUUGGAGGGAGGCCAGACAGGCACCAGGAGCAAGUCUGCCUCAGCAGCAGUGAGCUCUUUAUCUGGGAGGCCCUGUUCUGG: 0.598
GUCCUCAAAAAGGACUUAGCCCCGGGAGUUGUUUAUAAAAUUUCCCCCACUUGUAUACAGUGUGCACUAAAAGAAAAUGUAUUUUAAUAUCUAAUGCCUGGGCUCUGAGC: 1.25
UAGAGAGACUGUACUUUUUUUCUAGAAAAAAAUAUUGUGAAACAGUUUUCUGUAGUGAUAUUGUUGAAUAUGACAGGUAAAGCAACUGUGAGGGCAAACUAGAAUUAGUA: 1.3

Sample 6
Target: Fragile X messenger ribonucleoprotein 1, C-terminal low-complexity region (Fmr1, Mus musculus, UniProt P35922)
Technique: RNA Bind-n-Seq
Molecule type: RNA
Matrix: in vitro
Concentration: 200 nM
Notes: whole 134-nt RNA, ends assumed
Added: 150 mM LiCl
Reference: input library
Reading: higher = stronger binding
Endpoint: log2 enrichment
Library: 7-deaza-guanosine replaces G
All sequences stand within: GGGAGUUCUACAGUCCGACGAUC … UGGAAUUCUCGGGUGUCAAGG
UUUCUCUCACCAGGUACCAGGUCAUCAGUACACCAUCUGAUAUUUUCAUGGUGAUGGAAUAUGUCUCAGGAGGAGAGCUAUUUGAUUAUA: 1.28
UCCUGUGCUACACAUCGUAUGUACCGAAUCGGAAAAAAGGAAAAAAGGGGAAAAAAGGGGAAAGUAUUAUGUUACGCCGUUCGGAUCUGC: -0.959
UUCCUCAAGUCCUGUGCUACACAUCGUAUGUACCGAAUCGUGUGUGUGUGUAAAGUAUUAUGUUACGCCGUUCGGAUCUGCACUUCCAGC: 0.436
UGGGAGGUGGAUUUUGUUUAUUUUUUUAGCUCAUUUCCAGGGGUGGGAAUUUUUUUUUAAUAUGUGUCAUGAAAAAAGUUGUUUUUGAAA: -0.148
AGUCCUGUGCUACACAUCGUAUGUACCGAAUCGGGGUGGGGUGGGGAAAAAAAGGGGAAAGUAUUAUGUUACGCCGUUCGGAUCUGCACU: -0.428
ACCAUGCAGGUGGGCAUCUUUGGGAAGUGGGGCAAGGAGGGGAUAGGGAGGGGGGUAACACUUUGGGAACAGGUGGUCCCAGGUCGUUUC: 1.4
UCCUGUGCUACACAUCGUAUGUACCGAAUCGGGGAAAGGGGAAAAAAAGGGGUUUGGGGAAAGUAUUAUGUUACGCCGUUCGGAUCUGCA: -0.414
UUCAGUUAUUCAAGCGGAGAAAUGUUGCUACAGCAGAAGAAGAAACAGAAGAAGAAGUUAUGUCAGAUGGAGGCUUUCAUGAGGCUCAGA: -2.63
GCCCUGUAAUCGUGGAGAUCCCGCACUUUGCCUCCCAUGGCCGUGGAGACCGCGAGCUCGUGGUUCUGAGGAGCGAAAACGGCUCCGUGU: -1.94
ACCAUGCAGGUGGGCAUCUUUGGGAAGUGGGAAAAGGGGGGGAUAGGGAGGGGGGUAACACUUUGGGAACAGGUGGUCCCAGGUCGUUUC: 1.52
AGUCCUGUGCUACACAUCGUAUGUACCGAAUCAAAUUUAAAUUUAAAUUUUUUUAAAAAAGUAUUAUGUUACGCCGUUCGGAUCUGCACU: -3.51

Some of these lines once more (sample 3):
UAGGCA: 0.826
CUCGGA: 0.806
CAAGUA: 0.658
GGCCUA: 0.976
GUUUGC: 0.854
CACCAA: 0.718
AAGCGC: 0.782
AAGCUG: 0.783
UCGCUU: 0.579
GACCCA: 0.722
GAUAAC: 0.679
CGUGAA: 0.831
GUAGGC: 1.38
GGACUG: 1.64
AGCCAU: 0.646
